Results gathered from unrelated publications.
Every numbered part comes from another study and shows a few of its results, in no order. Values joined by “and” are separate records of one study, mostly repeats; a detail may differ.
Sequence of UniProt Q99808 (whole entry, looked up): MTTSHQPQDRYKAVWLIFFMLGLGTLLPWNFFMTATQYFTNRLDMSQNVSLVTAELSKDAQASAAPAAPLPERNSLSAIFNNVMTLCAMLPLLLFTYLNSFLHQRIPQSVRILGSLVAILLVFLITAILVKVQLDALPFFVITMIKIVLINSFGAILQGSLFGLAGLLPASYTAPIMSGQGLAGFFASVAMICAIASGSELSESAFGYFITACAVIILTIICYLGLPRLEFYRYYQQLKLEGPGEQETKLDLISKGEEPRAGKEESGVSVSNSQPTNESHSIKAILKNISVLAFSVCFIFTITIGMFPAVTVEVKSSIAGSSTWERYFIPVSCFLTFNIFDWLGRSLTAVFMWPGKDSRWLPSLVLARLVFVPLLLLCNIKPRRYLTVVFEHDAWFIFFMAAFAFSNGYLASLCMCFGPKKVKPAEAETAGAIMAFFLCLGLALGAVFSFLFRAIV
Sequence of UniProt Q15349 (whole entry, looked up): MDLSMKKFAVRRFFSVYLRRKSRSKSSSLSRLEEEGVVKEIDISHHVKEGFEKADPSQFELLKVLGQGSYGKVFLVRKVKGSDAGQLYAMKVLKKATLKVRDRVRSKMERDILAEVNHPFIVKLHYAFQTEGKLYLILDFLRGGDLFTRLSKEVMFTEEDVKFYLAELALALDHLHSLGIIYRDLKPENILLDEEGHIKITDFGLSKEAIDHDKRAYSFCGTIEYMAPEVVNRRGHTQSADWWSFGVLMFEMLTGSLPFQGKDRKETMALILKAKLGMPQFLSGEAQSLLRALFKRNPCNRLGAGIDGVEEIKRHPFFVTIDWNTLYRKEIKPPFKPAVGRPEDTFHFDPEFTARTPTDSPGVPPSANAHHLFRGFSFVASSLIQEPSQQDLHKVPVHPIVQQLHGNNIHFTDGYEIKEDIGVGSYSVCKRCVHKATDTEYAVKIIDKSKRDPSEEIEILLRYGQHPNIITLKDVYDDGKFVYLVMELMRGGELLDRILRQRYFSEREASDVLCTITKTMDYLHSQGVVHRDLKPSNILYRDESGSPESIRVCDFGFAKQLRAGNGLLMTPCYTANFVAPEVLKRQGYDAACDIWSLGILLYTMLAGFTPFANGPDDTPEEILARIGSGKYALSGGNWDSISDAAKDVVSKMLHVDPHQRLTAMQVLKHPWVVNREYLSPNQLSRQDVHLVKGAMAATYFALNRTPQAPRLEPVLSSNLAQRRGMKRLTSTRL
Sequence of UniProt P36896 (whole entry, looked up): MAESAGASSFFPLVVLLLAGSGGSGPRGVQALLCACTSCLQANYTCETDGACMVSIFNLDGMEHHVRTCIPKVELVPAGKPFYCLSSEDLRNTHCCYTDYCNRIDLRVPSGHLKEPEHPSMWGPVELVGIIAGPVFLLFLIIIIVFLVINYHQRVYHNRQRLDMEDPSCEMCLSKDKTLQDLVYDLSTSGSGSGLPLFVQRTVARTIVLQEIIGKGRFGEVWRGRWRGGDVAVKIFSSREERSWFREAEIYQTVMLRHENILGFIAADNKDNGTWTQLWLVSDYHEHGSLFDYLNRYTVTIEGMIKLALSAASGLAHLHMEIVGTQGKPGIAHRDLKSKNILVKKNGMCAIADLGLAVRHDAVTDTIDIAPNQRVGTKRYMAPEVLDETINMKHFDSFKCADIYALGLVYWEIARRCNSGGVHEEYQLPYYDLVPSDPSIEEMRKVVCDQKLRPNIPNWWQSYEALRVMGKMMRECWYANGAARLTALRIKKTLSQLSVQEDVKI
Sequence of UniProt Q8IYT8 (whole entry, looked up): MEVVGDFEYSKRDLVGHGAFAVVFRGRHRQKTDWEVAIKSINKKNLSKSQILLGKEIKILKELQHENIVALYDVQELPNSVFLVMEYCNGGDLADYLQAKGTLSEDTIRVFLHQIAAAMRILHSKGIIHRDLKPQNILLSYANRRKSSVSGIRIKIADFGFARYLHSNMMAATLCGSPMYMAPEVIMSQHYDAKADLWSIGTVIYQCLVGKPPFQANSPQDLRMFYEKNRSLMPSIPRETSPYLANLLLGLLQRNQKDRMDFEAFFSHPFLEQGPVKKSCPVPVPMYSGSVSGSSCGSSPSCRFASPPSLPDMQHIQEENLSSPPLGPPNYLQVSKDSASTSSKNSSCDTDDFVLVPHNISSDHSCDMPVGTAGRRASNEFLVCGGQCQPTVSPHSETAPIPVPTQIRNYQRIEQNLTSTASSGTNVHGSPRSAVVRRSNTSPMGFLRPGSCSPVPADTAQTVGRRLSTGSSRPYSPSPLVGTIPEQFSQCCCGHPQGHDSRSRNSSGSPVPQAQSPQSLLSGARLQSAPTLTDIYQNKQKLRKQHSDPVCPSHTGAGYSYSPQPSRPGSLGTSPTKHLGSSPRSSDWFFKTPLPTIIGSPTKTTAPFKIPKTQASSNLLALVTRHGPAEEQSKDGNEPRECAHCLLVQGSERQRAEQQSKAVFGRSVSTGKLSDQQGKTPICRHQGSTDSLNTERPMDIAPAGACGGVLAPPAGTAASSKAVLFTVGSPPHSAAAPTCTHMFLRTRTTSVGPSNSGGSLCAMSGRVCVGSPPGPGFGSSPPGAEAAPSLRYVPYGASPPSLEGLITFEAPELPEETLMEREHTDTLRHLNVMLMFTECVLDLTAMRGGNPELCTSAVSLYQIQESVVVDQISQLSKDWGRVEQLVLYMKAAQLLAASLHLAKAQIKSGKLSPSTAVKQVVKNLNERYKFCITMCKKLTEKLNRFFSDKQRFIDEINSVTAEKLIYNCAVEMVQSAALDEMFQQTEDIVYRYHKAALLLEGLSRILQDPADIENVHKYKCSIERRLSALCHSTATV
Sequence of UniProt P08588 (whole entry, looked up): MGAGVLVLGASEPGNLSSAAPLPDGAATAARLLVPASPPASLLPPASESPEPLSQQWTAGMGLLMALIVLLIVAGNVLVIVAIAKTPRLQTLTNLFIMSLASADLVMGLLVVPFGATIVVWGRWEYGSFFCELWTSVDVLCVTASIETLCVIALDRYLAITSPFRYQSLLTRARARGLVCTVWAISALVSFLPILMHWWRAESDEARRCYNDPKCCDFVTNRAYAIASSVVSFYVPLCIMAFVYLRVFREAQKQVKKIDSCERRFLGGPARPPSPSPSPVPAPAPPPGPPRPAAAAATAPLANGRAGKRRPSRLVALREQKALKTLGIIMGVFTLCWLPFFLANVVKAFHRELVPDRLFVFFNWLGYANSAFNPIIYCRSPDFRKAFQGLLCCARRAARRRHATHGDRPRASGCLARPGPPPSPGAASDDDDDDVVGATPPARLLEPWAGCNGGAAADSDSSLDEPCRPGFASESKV
Sequence of UniProt Q9UHD2 (whole entry, looked up): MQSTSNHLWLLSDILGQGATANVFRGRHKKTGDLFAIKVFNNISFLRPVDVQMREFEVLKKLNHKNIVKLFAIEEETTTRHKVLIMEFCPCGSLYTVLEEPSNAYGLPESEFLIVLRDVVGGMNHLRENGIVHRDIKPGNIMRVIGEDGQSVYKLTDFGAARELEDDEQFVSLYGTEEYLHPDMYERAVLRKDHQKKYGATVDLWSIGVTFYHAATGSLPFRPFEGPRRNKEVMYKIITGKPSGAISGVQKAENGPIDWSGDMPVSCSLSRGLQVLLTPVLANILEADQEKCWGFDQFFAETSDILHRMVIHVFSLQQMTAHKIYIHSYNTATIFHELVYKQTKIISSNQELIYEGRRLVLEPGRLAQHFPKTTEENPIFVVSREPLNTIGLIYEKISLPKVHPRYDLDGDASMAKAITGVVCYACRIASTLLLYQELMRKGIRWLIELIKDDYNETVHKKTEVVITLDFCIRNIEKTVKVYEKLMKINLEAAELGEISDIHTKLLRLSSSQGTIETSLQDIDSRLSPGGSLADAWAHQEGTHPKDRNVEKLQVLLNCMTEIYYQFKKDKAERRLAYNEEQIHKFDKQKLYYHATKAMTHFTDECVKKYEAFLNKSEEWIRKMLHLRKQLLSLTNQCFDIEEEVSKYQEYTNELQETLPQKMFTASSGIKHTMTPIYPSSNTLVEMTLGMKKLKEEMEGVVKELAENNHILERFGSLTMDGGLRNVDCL
Sequence of UniProt P27361 (whole entry, looked up): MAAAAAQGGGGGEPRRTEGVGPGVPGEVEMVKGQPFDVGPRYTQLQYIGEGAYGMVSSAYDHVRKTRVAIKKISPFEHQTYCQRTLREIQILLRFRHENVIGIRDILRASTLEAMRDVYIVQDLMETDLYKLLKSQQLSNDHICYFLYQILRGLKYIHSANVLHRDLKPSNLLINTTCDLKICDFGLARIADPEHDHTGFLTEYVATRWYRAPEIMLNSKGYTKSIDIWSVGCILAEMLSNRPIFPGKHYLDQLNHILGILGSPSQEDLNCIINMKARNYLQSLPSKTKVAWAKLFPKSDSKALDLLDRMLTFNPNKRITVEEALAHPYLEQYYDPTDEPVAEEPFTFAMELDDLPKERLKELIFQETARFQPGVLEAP
Sequence of UniProt Q5BJF2 (whole entry, looked up): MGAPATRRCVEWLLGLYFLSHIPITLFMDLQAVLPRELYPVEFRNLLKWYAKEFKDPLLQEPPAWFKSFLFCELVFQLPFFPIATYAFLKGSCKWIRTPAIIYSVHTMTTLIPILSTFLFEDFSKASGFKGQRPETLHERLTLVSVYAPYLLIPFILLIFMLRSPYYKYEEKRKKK
Sequence of UniProt P50406 (whole entry, looked up): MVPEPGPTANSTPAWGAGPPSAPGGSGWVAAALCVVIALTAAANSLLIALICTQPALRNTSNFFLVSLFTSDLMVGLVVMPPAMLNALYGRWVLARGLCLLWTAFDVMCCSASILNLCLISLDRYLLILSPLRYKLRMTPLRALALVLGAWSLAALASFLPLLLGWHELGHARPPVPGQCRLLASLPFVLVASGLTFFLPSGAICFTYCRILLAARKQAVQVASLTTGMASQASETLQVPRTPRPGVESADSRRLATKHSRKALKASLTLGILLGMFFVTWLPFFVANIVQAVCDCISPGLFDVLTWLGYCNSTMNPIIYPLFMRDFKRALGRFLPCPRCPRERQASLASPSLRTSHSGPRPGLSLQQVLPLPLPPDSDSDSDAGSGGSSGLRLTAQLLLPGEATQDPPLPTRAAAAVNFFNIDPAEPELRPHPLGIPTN

Sample 1
Compound: O=c1cc(N2CCOCC2)oc2c(-c3ccccc3)cccc12
Effect on: enzyme activity
Action: inhibitor
Concentration: 0.5 µM
Baseline: control
target	remaining activity
CSNK1G3 (Homo sapiens, UniProt Q9Y6M4)	92.4%
MAPK3 (Homo sapiens, UniProt P27361)	104%
MERTK (Homo sapiens, UniProt Q12866)	95.2%
FRK (Homo sapiens, UniProt P42685)	101%
ULK3 (Homo sapiens, UniProt Q6PHR2)	103%
RPS6KA2 (Homo sapiens, UniProt Q15349)	92.4%
NEK6 (Homo sapiens, UniProt Q9HC98)	112%
TBK1 (Homo sapiens, UniProt Q9UHD2)	94.1%
ACVR1B (Homo sapiens, UniProt P36896)	101%
ARAF (Homo sapiens, UniProt P10398)	105%
ULK2 (Homo sapiens, UniProt Q8IYT8)	113%
ABL2 (Homo sapiens, UniProt P42684)	98.1%
WEE1 (Homo sapiens, UniProt P30291)	76.4%

Sample 2
Cell line: A-375
Concentration: 100 µM
Time: 60 h
Compound	viability [%]
CO[C@H]1C[C@@H]2CC[C@@H](C)[C@@](O)(O2)C(=O)C(=O)N2CCCC[C@H]2C(=O)O[C@H]([C@H](C)C[C@@H]2CC[C@@H](OCCO)[C@H](OC)C2)CC(=O)[C@H](C)/C=C(\C)[C@@H](O)[C@@H](OC)C(=O)[C@H](C)C[C@H](C)/C=C/C=C/C=C/1C	5.44
NC(=O)NS(=O)(=O)c1ccc(N)cc1	89.3
CC(=O)[C@H]1CC[C@H]2[C@@H]3CCC4=CC(=O)CC[C@]4(C)[C@H]3CC[C@]12C	5.18
Cc1cnc(NC(=O)C2=C(O)c3ccccc3S(=O)(=O)N2C)s1	89.2

Sample 3
Compound: CCOc1ccc(Nc2c3c(nc4ccccc24)CCC3)cc1
Organism: Leishmania donovani
Strain: DD8
effect on	method	medium	concentration	time	inhibition
parasite killing		intracellular amastigotes	20 µM	72 h	100%
parasite killing		promastigotes	16.66 µM	96 h	98% and 100% and 95%
parasite viability	resazurin	promastigotes	0.016 µM		3% and -6% and -5% and 0%
parasite viability	resazurin	promastigotes	0.033 µM		-1% and -2% and 1% and 2%
parasite killing		promastigotes	16.66 µM	24 h	89% and 91% and 94%
parasite killing		promastigotes	33.33 µM	72 h	99% and 100%
parasite viability	resazurin	promastigotes	0.16 µM		-2% and -1% and 5%

Sample 4
Structure (SMILES): CN(C)C(=O)Cn1cc(-c2nc(C3(c4ccc(-c5cnc(N)nc5)cc4)CC3)no2)cn1
Effect on: cell-free assay
Concentration: 10 µM
target	inhibition [%]
ADRA2A (Homo sapiens, UniProt P08913)	22.4
TMEM97 (Homo sapiens, UniProt Q5BJF2)	25
HTR6 (Homo sapiens, UniProt P50406)	-7.48
ADRA2C (Homo sapiens, UniProt P18825)	4.1
ADRA1B (Homo sapiens, UniProt P35368)	5.11
DRD4 (Homo sapiens, UniProt P21917)	1.18
ADRB1 (Homo sapiens, UniProt P08588)	7.58

Other studies, line by line
SMILES	target	test	conditions	how to read	quantity	result
COc1cc(C(=O)OCCCN2CCCN(CCCOC(=O)c3cc(OC)c(OC)c(OC)c3)CC2)cc(OC)c1OC	Equilibrative nucleoside transporter 1 (SLC29A1, Homo sapiens, UniProt Q99808)	inhibitor	10 pM, unit not given, added: [3H]adenosine	baseline: normalised control	adenosine uptake	0.977 and 0.672 and 1 and 1.08 and 1.04 and 1.14 and 0.818

Excerpt of the above (sample 1):
target	remaining activity
FRK (Homo sapiens, UniProt P42685)	101%
NEK6 (Homo sapiens, UniProt Q9HC98)	112%
ACVR1B (Homo sapiens, UniProt P36896)	101%
MERTK (Homo sapiens, UniProt Q12866)	95.2%
ABL2 (Homo sapiens, UniProt P42684)	98.1%
